Results gathered from unrelated publications.
Compare with care: the assays were run in different laboratories. “And” joins repeats or separate records; there may be more than shown. ± gives the spread as reported.
Chain of UniProt P10635 (whole entry, looked up): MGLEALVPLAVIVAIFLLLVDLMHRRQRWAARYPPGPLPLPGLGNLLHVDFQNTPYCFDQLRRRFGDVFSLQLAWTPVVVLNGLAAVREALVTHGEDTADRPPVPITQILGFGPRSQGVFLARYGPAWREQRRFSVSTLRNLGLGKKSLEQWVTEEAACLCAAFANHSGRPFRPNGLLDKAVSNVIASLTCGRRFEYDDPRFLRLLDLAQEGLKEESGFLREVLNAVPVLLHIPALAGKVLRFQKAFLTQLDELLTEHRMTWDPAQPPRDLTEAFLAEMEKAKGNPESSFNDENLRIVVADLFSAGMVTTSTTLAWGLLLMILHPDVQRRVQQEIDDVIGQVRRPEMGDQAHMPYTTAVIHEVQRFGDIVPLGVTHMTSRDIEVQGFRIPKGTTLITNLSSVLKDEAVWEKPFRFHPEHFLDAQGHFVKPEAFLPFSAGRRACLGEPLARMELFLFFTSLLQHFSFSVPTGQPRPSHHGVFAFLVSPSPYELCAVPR

SMILES	tested on	test	system	setting	how to read	endpoint	result
O=C(NS(=O)(=O)c1cccs1)c1cc2ccccc2n1Cc1ccc(Br)c2ccccc12			KM mouse, chronic hyperuricaemia model	dose not given, day 6		body weight	27.9 g and 27.5 g and 27 g and 24.1 g and 28.1 g and 28.9 g
C#CCOCCOCCOCCOCCn1cc(C(ONC(=O)/C=C/C(C)=C/C2(C)Oc3cc(N(C)C)ccc3C2=O)(c2ccc(C)cc2)c2ccc(C)cc2)nn1 (stereo not drawn)		HPLC	aqueous buffer, 20% acetonitrile	concentration not given, 246 min, pH 3	baseline: initial prodrug amount	release from prodrug hydrolysis	36.2%
CCCC[C@H](NC(C)=O)C(=O)N[C@@H](CO)C(=O)N[C@H](C(=O)N1CCC[C@H]1C(=O)N[C@]1(C)CCCCCCC=CCCC[C@@](C)(C(=O)N[C@@H](Cc2ccccc2)C(=O)N[C@@H](CCCCN)C(=O)N[C@@H](CCCNC(=N)N)C(=O)N[C@@H](CC(C)C)C(=O)N[C@@H](CCC(N)=O)C(N)=O)NC(=O)[C@H](CCCNC(=N)N)NC(=O)[C@H](CCCC)NC(=O)[C@H](CC(C)C)NC(=O)[C@H](CCCNC(=N)N)NC(=O)[C@H](CCCNC(=N)N)NC(=O)[C@H](CCCNC(=N)N)NC1=O)[C@@H](C)O	proteinase K	LC-MS		25 µM, 123.0 min, pH 7.4		remaining peptide	75.4%
CN1CCCNC(=O)c2cccc(c2)C(=O)NCCCN(C)CCCNc2cccc3c2C(=O)c2cccc(c2C3=O)NCCC1			mouse xenograft model	dose not given, day 10, group mean		body weight	26.7 g
CC1Cc2ccccc2N1C(=O)CN1CCN(Cc2ccccc2)CC1 (stereo not drawn)			female NMRI mice, whole blood	intraperitoneal, 10 mg/kg free base, 60 min		blood concentration	71 ng/mL
CN(O)C(=O)CCC(=O)NCCCN(CCCCN(CCCNC(=O)CCC(=O)N(C)O)C(=O)CCC(=O)N(C)O)C(=O)CCC(=O)N(C)O.[89Zr]		radio-TLC	aqueous buffer	3 d, pH 7.2, 37 °C, 89Zr-labelled complex, with: FeCl3 100-fold excess		intact complex	68.1 ± 1%
CNC(NN=Cc1ccc([N+](=O)[O-])o1)=[S+][Au-][Cl]		UV-Vis	dichloromethane	0.1 mM, time without spectral change		solution stability	≥ 72 h
Cc1ncsc1-c1ccc(C(C)NC(=O)C2CC(O)CN2C(=O)C(NC(=O)CCCCCCCCCCN2CCCC(Nc3ncc(Cl)c(Nc4ccccc4S(=O)(=O)C(C)C)n3)C2)C(C)(C)C)cc1 (stereo not drawn)	22Rv1	RNA-seq, measured: TRAM1L1 mRNA		concentration not given	baseline: DMSO	log2 fold change	-1.48
Nc1ncc(-c2cc(-c3cnn(CC(F)(F)F)c3)ncc2F)nc1C(=O)NC1CNCC(F)C1 (stereo not drawn)	SGK	KINOMEscan competition binding		1 µM	baseline: DMSO control	remaining binding	100%
[11CH3]N1CCC(NC(=O)c2cc(-c3c(O)cc(O)cc3Oc3ccc([N+](=O)[O-])cc3)on2)CC1			Wistar rat, female, healthy, spleen	intravenous, 2 min		tissue uptake	0.6 ± 0.1 %ID
CN1CCC[C@]1(C)/C=C/S(=O)(=O)NC(=O)Nc1c2c(cc3c1CCC3)CCC2		measured: laboratory investigations	human	oral, 50 mg twice daily, 14 days, multiple ascending dose		subjects with adverse event	16.7%
CC(C)C[C@@H]1NC(=O)[C@H](CCCCN)NC(=O)CNC(=O)[C@H]2CCCN2C(=O)[C@H](CCCCN)NC(=O)[C@H](CC(C)C)NC(=O)[C@H](CCCCN)NC(=O)C2CCC=CCCC(NC(=O)[C@H](CCCCN)NC1=O)C(=O)N[C@@H](CCCCN)C(=O)NC(C(N)=O)CCC=CCCC(N)C(=O)N[C@@H](CCCCN)C(=O)N2 (stereo partly drawn)		RP-HPLC C18		hydrophobicity		retention time	14.8 min
CNC(=O)C1CCCN(C(=O)C2CC3CCC2N3C(=O)[C@@H]2C[C@@H](O)CN2C(=O)NCc2cccc(Cl)c2F)C1 (mixture of isomers)	Cytochrome P450 2D6 (CYP2D6, Homo sapiens, UniProt P10635)	enzyme activity, inhibitor, time-dependent inhibition		1.85 µM, preincubated without NADPH	baseline: negative control	remaining activity	95.9%
CC(C)Cn1cc(Cc2cccc(OC(C)(C)C(=O)O)c2)c2ccc(C(=O)N[C@@H](C)c3cc(F)cc(C(C)(C)C)c3)cc21			human liver microsomes	1 µM, with: microsomes 1 mg/mL		half-life	57 min
CSCC[C@H](N)C(=O)N[C@@H](CO)C(=O)N[C@H](C(=O)N[C@@H](C)C(=O)NCC(=O)N[C@@H](CC(C)C)C(=O)N[C@@H](CCCCN)C(=O)N[C@@H](CCCCN)C(=O)N[C@@H](CCC(N)=O)C(=O)N[C@@H](Cc1c[nH]c2ccccc12)C(=O)N[C@@H](Cc1c[nH]cn1)C(=O)N[C@@H](CCCCN)C(=O)N[C@@H](C)C(=O)N[C@H](C(=O)N[C@@H](CCC(N)=O)C(=O)N[C@@H](CCCCN)C(=O)N[C@H](C(=O)N[C@@H](CO)C(=O)N[C@@H](CCC(=O)O)C(=O)N[C@@H](CCCCN)C(=O)N[C@H](C(=O)NCC(=O)NCC(=O)N[C@@H](C)C(N)=O)C(C)C)C(C)C)[C@@H](C)O)C(C)C		circular dichroism titration	25% DOPS/75% DOPC liposomes	50 µM, pH 7.4, 20 °C		ΔG of binding	-6.5 kcal/mol
C=CC(=O)Nc1cccc(Cn2ncc3cnc(Nc4cnn(CCOC)c4)nc32)c1	NEK5 human	binding, KINOMEscan		100 nM	lower = stronger binding	percent of control	57%
Cc1nn(-c2nc3c(F)cc(F)cc3s2)c(O)c1C(c1ccc(C(F)(F)F)cc1)c1c(C)nn(-c2nc3c(F)cc(F)cc3s2)c1O			ICR mouse, plasma	oral, 50 mg/kg		Clast	226 ng/mL and 509 ng/mL and 2880 ng/mL
COc1cccc(OC)c1-c1cc(C(=O)NC2(C(=O)O)C3CC4CC(C3)CC2C4)nn1-c1ccc(C(=O)N(C)CCCN(C)C(=O)[C@H](CCCCNC(=O)[C@H](CC(C)C)NC(=O)C2OC2C(=O)O)NC(=O)CN2CCN(CC(=O)[O-])CCN(CC(=O)[O-])CCN(CC(=O)[O-])CC2)cc1C(C)C.[177Lu+3] (mixture of isomers)			mouse HT-29 xenograft, large intestine	72 h post injection, biodistribution		tissue uptake	0.154 %ID/g
O=S(=O)(NCc1ccncc1)c1ccc(C2CCCCC2)cc1			CK-p25 mouse and littermates	intraperitoneal, 0.3 mg/kg daily, 6 weeks		body weight	no effect
Cc1nc(N)nc2c1C(=O)N[C@@H](c1ccc(F)cc1-c1cccc(O[11CH3])n1)C2		ex vivo biodistribution	healthy mice, pancreas	60 min post-injection, baseline, vehicle pre-treatment		tracer uptake	1.9 ± 0.2 %ID
O=C(Nc1cnccc1-c1ccc([18F])nc1)c1ccnc(NC(=O)C2CC2)c1			FVB/NJ mouse, both sexes, liver	intravenous, 30 min		SUV	9.8

SMILES	tested on	test	system	setting	how to read	endpoint	result
C=CC(=O)Nc1cc(Nc2nccc(-c3cn(C)c4ccccc34)n2)c(OC)cc1N(C)CCNC		storage stability	human plasma	2 h, -80 °C, LLOQ level		recovery	100%
CC(C)(O)c1ncc([S@](N)(=O)=NC(=O)Nc2c3c(cc4c2CCC4)CCC3)s1			healthy human	oral, 3 mg single dose, capsule formulation		total adverse events	50%
COc1ccc(C(N)=O)cn1			Han Wistar rats, male, plasma	oral, 30 mg/kg, 8.00 h		concentration at time	0.114 µM
[2H]C([2H])(N)C([2H])([2H])NC(=O)c1cc(C2CC2)nc2c1cnn2C(C)C		metabolic stability	mouse, liver microsomes			microsomal CLint	< 9.6 µL/min/mg
NC(=O)c1cccc(NC(=O)c2cc(-c3ccc(Br)cc3)n(-c3ccccc3)n2)c1			rat liver microsomes	4 h		depletion	< 30%
CNS(=O)(=O)Nc1nccc(Cc2c(C)c3ccc(Oc4ncccc4F)cc3oc2=O)c1F	RL95-2	cell viability		7 days		IC50	5.04 nM
CN(C)S(=O)(=O)c1ccc(S(=O)(=O)N2CCC(n3c(=O)[nH]c4ccccc43)CC2)cc1			mouse	dose not given, day 7	baseline: day 0	relative body weight	103% and 102% and 104% and 101%
Cc1cc(-c2ccc(C(=O)[C@@H]3CCCC[C@H]3C(=O)Nc3cnn4c3C(=O)NCC4)cc2)[nH]n1			human, urine	oral, 200 mg, 0-6 h	baseline: dose	cumulative recovery of radioactivity	2.08%
CCCCN1C(=O)c2cccc3c(NCCCCCCN4CCOCC4)ccc(c23)C1=O			ethylene glycol			fluorescence quantum yield	0.73
C#CC(C)(C)C(=O)SCCOP1(=O)OCC2OC(n3cnc4c(N)ncnc43)CC2OP(=O)(OCCSC(=O)C(C)(C)C#C)OCC2OC(n3cnc4c(N)ncnc43)CC2O1 (stereo not drawn)			non-tumor-bearing mice, blood	intravenous, 1 mg/kg, toxicity study		RDW-CV	12.33 ± 0.1%
N=C(N)NCCC[C@@H]1NC(=O)[C@H](CO)NC(=O)[C@@H](NC(=O)[C@H](CO)NC(=O)[C@H](CO)NC(=O)[C@H](Cc2c[nH]c3ccccc23)NC(=O)CNC(=O)[C@H](CO)NC(=O)[C@@H](N)Cc2c[nH]c3ccccc23)CSSC[C@@H](C(=O)NCC(=O)O)NC(=O)[C@H](CO)NC1=O			patients, plasma	intravenous, 10 mg/kg, thrice weekly, median		Cmax	6360 ng/mL
C=CC(=O)N1CCCC(n2c(=O)c3ncccc3n(Cc3ccc(Oc4ccccc4)cc3)c2=O)C1 (stereo not drawn)		metabolic stability	male CD-1 mouse, hepatocytes	1 µM, 90 min		compound remaining	0.4%
CC[C@H](C)[C@@H](C(=O)N[C@@H](CC(C)C)C(=O)N[C@@H](CO)C(=O)N[C@@H](CO)C(=O)N[C@H](C(=O)N[C@@H](CCC(=O)O)C(=O)N[C@H](C(=O)NCC(=O)N[C@@H](CO)C(=O)N[C@@H](CC(N)=O)C(=O)N[C@H](C(=O)N1C[C@H](O)C[C@H]1C(N)=O)[C@@H](C)O)C(C)C)[C@@H](C)O)N(C)C(=O)[C@H](C)NC(=O)CN(C)C(=O)[C@H](Cc1ccccc1)NC(=O)[C@H](CO)NC(=O)[C@H](CO)NC(=O)[C@H](CCCNC(=N)N)NC(=O)[C@H](CCC(N)=O)NC(=O)[C@H](CC(C)C)NC(=O)[C@H](Cc1ccccc1)NC(=O)[C@H](CCCC(=O)O)NC(=O)[C@H](C)NC(=O)[C@H](CC(C)C)NC(=O)[C@H](CCCNC(=N)N)NC(=O)[C@H](CCC(=O)O)NC(=O)[C@@H](NC(=O)[C@H](C)NC(=O)[C@@H]1CCCCNC(=O)C[C@H](NC(=O)[C@H](CCCNC(=N)N)NC(=O)CC[C@H](NC(=O)CCCCCCCCCCCCCCCCCCC(=O)O)C(=O)O)C(=O)NCC(=O)N[C@@H]([C@@H](C)O)C(=O)N[C@@H](C)C(=O)N[C@@H]([C@@H](C)O)C(=O)N1)[C@@H](C)O		SEC	formulation, phosphate buffer, propylene glycol, mannitol, NaCl	1 weeks, pH 6.1, 40 °C		covalent oligomers	≤ 0.2%
COc1ccc2c(c1)CCn1c[n+]3c(c1-2)-c1ccc(OC)cc1CC3			female NSG mice, blood	6 mg/kg, day 20, 5 days per week		Eosinophils	7.32 ± 5.77%
O=C([O-])CN1CCN(CC(=O)[O-])CCN(CC(CCCc2ccccc2[N+](=O)[O-])N(CC(=O)[O-])CC(=O)[O-])CC1.[90Y+3] (stereo not drawn)		TLC	human serum	48 h, pH 7, 37 °C		intact radiolabelled complex	99.8 ± 0.1%
CCCCN1C(=O)c2cccc3c(NCCCCN4CCOCC4)ccc(c23)C1=O			DMF			fluorescence quantum yield	0.41
C=C(NC(=O)c1csc(-c2nc3c(cc2O)-c2nc(cs2)C(=O)NC(C(C)O)C(=O)NC(=C(C)OC)c2nc(cs2)C(=O)NC2c4nc(cs4)C(=O)NC(COC(=O)c4c5c6c(cccc6n4O)COC(=O)C(OC4CC(C)(O)C(N(C)C)C(C)O4)C2OC5)c2nc-3cs2)n1)C(N)=O (stereo not drawn)			Sprague-Dawley rat, both sexes, plasma	intravenous infusion, 6 mg/kg, multiple doses, day 1		Tmax	4.8 min
CC(C)OCCOCc1ccc(OCC(O)CN(N=O)C(C)C)cc1 (stereo not drawn)	Salmonella typhimurium	Ames test	TA1537	50 µg/plate, 30 % hamster S9	baseline: solvent control	revertant fold increase	0.8 fold
N#C[C@@H]1CC(F)(F)CN1C(=O)CNC(=O)c1ccnc2c(NC(=O)[C@H](CCCCNC(=O)CCOCCOCCOCCOCCOCCOCCNC(=O)CN3CCN(CC(=O)[O-])CCN(CC(=O)[O-])CCN(CC(=O)[O-])CC3)NC(=O)CCCc3ccc(I)cc3)cccc12.[177Lu+3]			U-87 MG tumour-bearing mice, blood	dose not given, 1 h post-injection, biodistribution		blood radioactivity	21.4 ± 3.88%
O=C(Nc1cnccc1-c1ccc([18F])cc1)c1ccnc(NC(=O)C2CC2)c1			FVB/NJ mice (both sexes), bladder	intravenous, dose not given, 120 min		SUV	1.64
CNc1cc(C)c(C(N)=O)cn1			Han Wistar rats, male, plasma	oral, 30 mg/kg, 0.50 h		concentration at time	88.3 µM

Some of these lines once more:
SMILES	tested on	test	system	setting	how to read	endpoint	result
Cc1ncsc1-c1ccc(C(C)NC(=O)C2CC(O)CN2C(=O)C(NC(=O)CCCCCCCCCCN2CCCC(Nc3ncc(Cl)c(Nc4ccccc4S(=O)(=O)C(C)C)n3)C2)C(C)(C)C)cc1 (stereo not drawn)	22Rv1	RNA-seq, measured: TRAM1L1 mRNA		concentration not given	baseline: DMSO	log2 fold change	-1.48
CNc1cc(C)c(C(N)=O)cn1			Han Wistar rats, male, plasma	oral, 30 mg/kg, 0.50 h		concentration at time	88.3 µM
C#CC(C)(C)C(=O)SCCOP1(=O)OCC2OC(n3cnc4c(N)ncnc43)CC2OP(=O)(OCCSC(=O)C(C)(C)C#C)OCC2OC(n3cnc4c(N)ncnc43)CC2O1 (stereo not drawn)			non-tumor-bearing mice, blood	intravenous, 1 mg/kg, toxicity study		RDW-CV	12.33 ± 0.1%
